# Assay results from different studies.
# Protocols differ between the studies behind these lines. ± gives the spread as reported.
# PDGFRB: Platelet-derived growth factor receptor beta (PDGFRB, Homo sapiens, UniProt P09619)
# NMBR: Neuromedin-B receptor (NMBR, Homo sapiens, UniProt P28336)
# MAL12: Alpha-glucosidase MAL12 (MAL12, Saccharomyces cerevisiae S288c, UniProt P53341)
SMILES,target,test,test system,conditions,IC50
COc1cc2nccc(Oc3ccc(NC(=S)NC4CC4)c(C(F)(F)F)c3)c2cc1C(N)=O,PDGFRB,,,,0.406 µM
O=C(O[C@H](CO)C(F)(F)F)N1C[C@@H]2[C@H](C1)[C@H]2c1ccn(-c2ccc(F)nc2)n1,"Mgll (Mus musculus, UniProt O35678)","enzyme activity, ABPP with FP-rhodamine",mouse brain lysate,"30 min preincubation, 37 °C",0.0085 µM
CCCCCCCCC/C=C/C=C/C(=O)N[C@H](C(=O)N[C@H]1C[C@@H](O)CCNC(=O)/C=C/[C@H](C)NC1=O)[C@@H](C)O,"Proteasome subunit beta type-10, trypsin-like site (Homo sapiens, UniProt P40306)","enzyme activity, inhibitor, fluorescence",,,0.0025 µM
COCCn1cc2c(n1)CN(C(=O)Nc1nc(-c3ccc(F)cc3F)ccc1N)C2,"HDAC5 (Homo sapiens, UniProt Q9UQL6)","deacetylase activity, inhibitor, recombinant enzyme",,,> 30 µM
COc1cc2nccc(Oc3ccc(NC(=S)NC4CC4)cc3C(F)(F)F)c2cc1C(N)=O,PDGFRB,,,,0.956 µM
Nc1nc(Cl)nc2c1ncn2Cc1cc(OCC(F)F)cc(OC(F)F)c1,"PDE3A (Homo sapiens, UniProt Q14432)","enzyme activity, inhibitor",,,> 10 µM
COc1ccc(-c2cc(C(F)(F)F)nc(S(=O)(=O)CCC(=O)Nc3ccc(C)cc3)n2)cc1,"WRN (Homo sapiens, UniProt Q14191)","ATPase activity, inhibitor, ADP-Glo",,with: ATP 1 mM,> 50 µM
OC[C@@H]1NC[C@H](O)[C@@H]1O,"Lysosomal alpha-mannosidase (Drosophila melanogaster, UniProt Q9VKV1)","enzyme activity, inhibitor",,with: pNP-mannoside,7500 µM
O=c1c2ccccc2[s+]([O-])n1-c1ccccc1 (stereo not shown),"HDAC10 (Homo sapiens, UniProt Q969S8)","enzyme activity, inhibitor",,,> 10 µM
CN(CC(=O)c1ccc2[nH]c(=O)[nH]c2c1)Cc1ccco1,"DNA dC->dU-editing enzyme APOBEC-3A (Homo sapiens, UniProt P31941)","enzyme activity, inhibitor",,pH 6,60 µM
COc1cc2nccc(Oc3ccc4c(c3)CCCN4C(=S)NC3CC3)c2cc1C(N)=O,PDGFRB,,,,0.857 µM
Cc1ccc2c(c1Br)C(O)(CC(=O)c1ccc3c(c1)OCO3)C(=O)N2 (stereo not shown),"Uncharacterized protein (Trypanosoma brucei brucei, UniProt Q386Q8)","enzyme activity, inhibitor, HPLC",Trypanosoma brucei,,66 ± 8 µM
CC(C)C[C@@H]1NC(=O)[C@H]([C@@H](C)O)NC(=O)[C@H](Cc2ccccc2)NC(=O)CNC(=O)[C@H](Cc2c[nH]c3ccccc23)NC(=O)[C@H](Cc2c[nH]cn2)NC(=O)[C@H]([C@@H](C)O)NC(=O)[C@H]([C@@H](C)O)NC(=O)[C@H](C)NC(=O)C[C@@H](C(N)=O)NC1=O,"MMP2 (Homo sapiens, UniProt P08253)",inhibitor,,"1 h preincubation, 37 °C, with: APMA-activated enzyme",10.9 µM
CCCC[C@H](NC(=O)[C@H](Cc1ccccc1)NC(=O)[C@H](Cc1c[nH]cn1)NC(=O)CCNC(=O)[C@@H](NC(=O)[C@H](C)NC(=O)[C@H](Cc1c[nH]c2ccccc12)NC(=O)[C@H](CC(N)=O)NC(=O)[C@@H](Cc1ccc(O)cc1)NC(=O)[C@@H](CO)NC(=O)[C@H](CO)NC(=O)[C@H](N)CO)C(C)C)C(N)=O,NMBR,"NMBR activity, cell-based",,,0.0054 to 0.042 µM
O=C1O[C@H]([C@H](O)c2ccc(O)cc2)c2cccc(O)c21,MAL12,"enzyme activity, inhibitor, absorbance",,,21.9 µM
CC(C)CCN(Cc1ccccc1)c1nc(C#N)nc(N2CCOCC2)n1,"Procathepsin L (CTSL, Homo sapiens, UniProt P07711)","enzyme activity, inhibitor, fluorescence",,,0.062 µM
"CC1(C)C2CC3C(c4ccccc4)c4c(O)c(C=O)c(O)c(C=O)c4OC3(C)C1C2 (single isomer, unassigned; (+))","PFKL (Homo sapiens, UniProt P17858, K677R/K681R)","enzyme activity, inhibitor, coupled enzyme",,double mutant,> 100 µM
COc1cc(O)c2c(c1)CCC21CCC(=O)CC1,rat intestinal α-glucosidase,"enzyme activity, inhibitor",,,2200 µM
CC(=O)NCC(=O)N[C@@H](CC(=O)O)C(=O)N[C@@H](Cc1ccc(O)cc1)C(=O)N[C@@H](CO)C(=O)N[C@@H](Cc1cnc[nH]1)C(=O)N[C@H]1CSSC[C@@H](C(=O)N[C@H](C(=O)N[C@@H](Cc2ccc(O)cc2)C(=O)N2CCC[C@H]2C(=O)N[C@@H](CC(=O)O)C(=O)N2CCC[C@H]2C(=O)N[C@@H](CCC(=O)O)C(=O)NCC(=O)NCC(=O)NCC(N)=O)[C@@H](C)O)NC(=O)[C@H](CCCCN)NC(=O)[C@H](Cc2c[nH]c3ccccc23)NC(=O)[C@H](Cc2c[nH]c3ccccc23)NC(=O)[C@@H]2CCCN2C(=O)[C@H](Cc2ccc(O)cc2)NC(=O)[C@H](Cc2ccc(O)cc2)NC(=O)[C@H](CCCNC(=N)N)NC(=O)[C@H](CC(C)C)NC(=O)[C@@H]2CCCN2C(=O)[C@H](CO)NC1=O,"Angiotensin-converting enzyme (Mus musculus, UniProt P09470)","enzyme activity, inhibitor",,lysate,1.58 µM
CC[C@H](C)[C@H](NC(=O)[C@H](CC(C)C)NC(=O)[C@H](C)NC(=O)c1ccc(CN2CCNCC2)cc1)C(=O)N[C@@H](Cc1ccccc1)C(N)=O,"Cyclin-A2, with CDK2 (CCNA2, Homo sapiens, UniProt P20248)","binding to cyclin groove, inhibitor, fluorescence polarization competition",,,> 100 µM
O=C(O)CCCC(=O)NNC(=O)c1cc2c(cn1)[nH]c1ccccc12,"Egl nine homolog 1 (EGLN1, Homo sapiens, UniProt Q9GZT9)","inhibitor, AlphaScreen",,"bimodal curve, rough estimate, with: 2 µM 2-oxoglutarate",0.13 µM
COc1cc2nccc(Oc3ccc(NC(=S)NCc4ccccn4)c(Cl)c3)c2cc1C(N)=O,"KDR (Homo sapiens, UniProt P35968)",,,,0.373 µM
CC(C)CCC[C@@H](C)[C@H]1CCC([C@@H]2CC[C@H]3C[C@@H](O)CC[C@]3(C)[C@@H]2O)[C@]1(C)CC(=O)O (stereo partly shown),"Bile acid receptor (NR1H4, Homo sapiens, UniProt Q96RI1)","transactivation, antagonist, SHP promoter luciferase reporter",HEK293T,with: GW4064 10 µM,1.6 µM
COc1ccc(/C=N/N=C(c2ccc(N(C)C)cc2)c2ccc(N(C)C)cc2)c(OC)c1,MAL12,"enzyme activity, inhibitor",,"pH 6.8, 37 °C, with: p-nitrophenyl alpha-D-glucopyranoside",0.38 ± 2.27 µM
COc1cc2nccc(Oc3ccc(NC(=S)NC4CC4)c(Cl)c3)c2cc1C(=O)NCC(F)(F)F,PDGFRB,,,,0.316 µM
CNC(=O)c1ccccc1Oc1nc(Nc2cc(OC)c(OC)c(OC)c2)ncc1Br,"MAP3K9 (Homo sapiens, UniProt P80192)","enzyme activity, inhibitor",,,0.071 µM
CC(C)C[C@H]1CN[C@H](C(N)=O)CSSC[C@@H](N)C(=O)N[C@@H](CCC(N)=O)C(=O)N[C@@H](Cc2c[nH]c3ccccc23)C(=O)N[C@@H](C)C(=O)N[C@@H](C(C)C)C(=O)N[C@H](C)C(=O)N[C@@H](Cc2c[nH]cn2)C(=O)N1,NMBR,"inositol phosphate generation, antagonist",Balb 3T3 expressing NMBR,with: neuromedin B 1 nM,> 10 µM
COC(=O)[C@]1(C)C=C(C(=O)Nc2cccc(C(=O)Nc3ccc(Nc4nccc(-c5cccnc5)n4)c(C)c3)c2)C(=O)CC1,"MAPK8 (Homo sapiens, UniProt P45983)","kinase activity, inhibitor",,with: GSH 10 mM,0.03 ± 0.005 µM
O=S(=O)(Nc1cc(F)c(Oc2ncccc2-c2ccnc(N[C@H]3CCCNC3)n2)cc1Cl)c1ccccc1Cl,"Serine/threonine-protein kinase/endoribonuclease IRE1, RNase domain (ERN1, Homo sapiens, UniProt O75460)","RNase activity, inhibitor",,with: XBP1 mini-substrate,2 ± 0.1 µM
CC(C)CCC[C@@H](C)[C@H]1CC[C@H]2[C@@H]3CC=C4C[C@@H](OS(=O)(=O)O)CC[C@]4(C)[C@H]3CC[C@]12C,"Prothrombin (F2, Homo sapiens, UniProt P00734)","enzyme activity, inhibitor",,with: hirudin peptide 0 nM,167 ± 18.9 µM
CCOC(=O)N1CCN(Cc2nc3c(c(=O)n(C)c(=O)n3C)n2CCC(C)C)CC1,"HSD17B4 (Homo sapiens, UniProt P51659)",,,,> 57 µM
CC1CC(=O)N(CCCCN)N=C1c1ccc(NC(=O)N2Cc3ccncc3C2)cc1 (stereo not shown),"NAMPT (Homo sapiens, UniProt P43490)","enzyme activity, inhibitor",,,0.0008 µM
Cn1cc(C(=O)C(=O)Nc2ccc(C(=O)N3CCCC3)cc2)c2ccccc21,"Nucleoside transporter 1 (Plasmodium vivax, UniProt A5K8B0)",yeast growth,purine auxotrophic yeast expressing target,"15 to 17 h, with: adenosine 1 mM",0.785 ± 0.39 µM
CC(C)CCCn1c(CN2CCN(C(=O)C3CC3)CC2)nc2c1c(=O)n(C)c(=O)n2C,"ALDH1A1 (Homo sapiens, UniProt P00352)",,,,0.035 ± 0.01 µM

# Excerpt of the above:
SMILES,target,test,test system,conditions,IC50
CC[C@H](C)[C@H](NC(=O)[C@H](CC(C)C)NC(=O)[C@H](C)NC(=O)c1ccc(CN2CCNCC2)cc1)C(=O)N[C@@H](Cc1ccccc1)C(N)=O,"Cyclin-A2, with CDK2 (CCNA2, Homo sapiens, UniProt P20248)","binding to cyclin groove, inhibitor, fluorescence polarization competition",,,> 100 µM
COc1cc2nccc(Oc3ccc4c(c3)CCCN4C(=S)NC3CC3)c2cc1C(N)=O,PDGFRB,,,,0.857 µM
"CC1(C)C2CC3C(c4ccccc4)c4c(O)c(C=O)c(O)c(C=O)c4OC3(C)C1C2 (single isomer, unassigned; (+))","PFKL (Homo sapiens, UniProt P17858, K677R/K681R)","enzyme activity, inhibitor, coupled enzyme",,double mutant,> 100 µM
O=C(O)CCCC(=O)NNC(=O)c1cc2c(cn1)[nH]c1ccccc12,"Egl nine homolog 1 (EGLN1, Homo sapiens, UniProt Q9GZT9)","inhibitor, AlphaScreen",,"bimodal curve, rough estimate, with: 2 µM 2-oxoglutarate",0.13 µM
